Published values pooled from the literature.
Each numbered part is a random draw from the data of one study; scales do not carry over between parts. Changes are numbered by the printed parent chain.

Set 1
Target: DDIT3, bZIP domain (human)
Technique: DHFR protein complementation
Medium: yeast
Notes: single substitutions, most at no-binding floor
Baseline: wild-type JUN-FOS pair
Direction: higher = stronger binding
Starting sequence: JUN, bZIP domain (human); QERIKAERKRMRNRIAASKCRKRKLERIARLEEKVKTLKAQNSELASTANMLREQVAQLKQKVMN; partner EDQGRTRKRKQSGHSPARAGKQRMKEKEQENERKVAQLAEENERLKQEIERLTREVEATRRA
Change	binding fitness
R30L	0.0937 natural log
S47L	0.0555 natural log
N42D	-1.36 natural log
Q41K	-0.056 natural log
E33K	0.0116 natural log
S47M	0.0832 natural log
E32P	-1.15 natural log
L31W	-0.495 natural log
E32C	-0.46 natural log
S43A	0.189 natural log
N42K	-0.523 natural log
I28N	-0.0725 natural log
L45F	-0.748 natural log
T48W	-0.0984 natural log
A40P	-1.23 natural log
E44L	-0.0313 natural log
M51W	-0.0278 natural log
S47G	-0.0174 natural log

Set 2
Substance: PhoQ, residues 284 288 289 292 302 303 AEGLLW
Technique: Sort-seq
Measured: YFP reporter
Medium: E. coli
Notes: PhoQ-PhoP variant library
Added: 10 µM Mg2+
Baseline: high Mg2+ state
Direction: higher = stronger signaling
target	fold induction
PhoP, residues 12 14 15 18 19 GMGLL (Escherichia coli, UniProt P23836)	0.568
PhoP, residues 12 14 15 18 19 QQAYL (Escherichia coli, UniProt P23836)	21.1
PhoP, residues 12 14 15 18 19 LFHKL (Escherichia coli, UniProt P23836)	5.07

Set 3
Target: Histone acetyltransferase KAT6A, winged helix 1, GST fusion (KAT6A, Homo sapiens, UniProt Q92794, residues 1-85)
Technique: protein binding microarray
Form: double-stranded DNA, one strand shown
Medium: in vitro
Concentration: not given
Notes: 8-mer, flanks averaged, mean of 2 arrays, mostly near background
Baseline: not given
Direction: higher = stronger binding
Construct (chain): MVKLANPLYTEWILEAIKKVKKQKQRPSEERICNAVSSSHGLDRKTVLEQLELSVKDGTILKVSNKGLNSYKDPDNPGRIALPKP
Sequence	E-score
AAACTCTT	-0.289
AACATCTT	-0.179
ATTTTAAC	-0.136
GTTCCCAA	-0.0887
GTCGCCTA	0.137
ACGAGAGA	-0.142
ACAATCGG	0.133
CGCATGCA	0.212
GCATTCAC	0.0947
GATCGAAC	-0.107
TGGCCCCA	-0.258
CTACGTCA	-0.128
ACCGGCGT	0.347
CGGGACAG	0.219
CTGGCGGC	0.341
ACAAACGC	0.24
AAACACGG	0.257
AACGAACA	-0.0171
AAATACCG	0.0947
TCAACAGA	-0.0867
TACGCGAA	0.233
ATCGATGC	0.0689
AGCGCGCG	0.468
CGGGCTGA	0.236
ACCAGTTA	-0.301

Set 4
Target: CCNE2, cyclin fold, Cln2 fusion (human)
Technique: yeast growth competition, sequencing
Medium: yeast
Notes: strong parent motif
Baseline: not given
Direction: higher = stronger binding
Starting sequence: CDKN1B docking peptide (human); PSACRNLFGPVDH
Change	normalised enrichment score
R5W	-0.202
N6Y	0.317
P10N	1.62
C4L	1.32
D12G	1.53
P10C	1.58
N6G	0.421
L7N	-0.155
C4R	1.78
G9L	0.811
R5Y	0.264
L7M	0.628
H13Q	1.46
G9K	1.98
L7P	0.13
G9R	-0.126
P10M	0.53
C4P	0.144
F8V	-0.324
G9P	0.8
C4Q	0.149
C4T	0.459
C4K	1.27
D12R	1.53
A3I	1.36

Set 5
Target: RNA binding protein fox-1 homolog 2, RRM domain, GST-SBP tag (RBFOX2, Homo sapiens, UniProt O43251-10, residues 100-194)
Technique: RNA Bind-n-Seq
Form: RNA
Medium: in vitro
Concentration: 365 nM
Notes: natural RNA segment, single round, ends assumed
Baseline: no-protein control
Direction: higher = stronger binding
Construct (chain): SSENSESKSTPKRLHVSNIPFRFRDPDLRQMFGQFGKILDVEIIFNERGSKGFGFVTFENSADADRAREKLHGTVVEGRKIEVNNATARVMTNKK
Sequence	RBNS enrichment (R)
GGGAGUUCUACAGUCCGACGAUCCUCUGAGACCUCUGCAAAGAUGUCCCUUUUAUGCCCUUGACCUUGACUCACCAUGGGCUGCUGGGGUGUCGGGAGAAGCCACACCCAACAUGCCCAUUAGCAGAGGCUGCUGGAAUUCUCGGGUGCCAA	0.39
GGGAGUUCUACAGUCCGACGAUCUUAUAAAUAUAUAUUAUAUAAAUAUAUGACAAAGGAAAAUGUUUCAGAUGUCUAUUUGUAUAAUUACUUGAUCUACACAGUGAGGAAAAAAAUGAAUGUAUUUCUGUUUUUGGAAUUCUCGGGUGCCAA	1.23
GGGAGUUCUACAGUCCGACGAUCGACGUGCCCUGUUGUAUCCUGACAAACCUUAAGCAGUUGAAACCAGUGUCGGCUAAGGCCUUCCUAGCUCUGGAGGUGACAGGGGAACCUCCAGGUGGAGGAACCACACGUGGAAUUCUCGGGUGCCAA	0.287
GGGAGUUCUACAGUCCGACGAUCUCUCAGUGAACCUUCUCAGUAAAUGGUGCCUUACCGUCACUCCAGUUUCAGGAACCAGCCACAUUUCUGGUGUGUAUAUGAGAGGGUGGCUGAUAGCAACUGACUUAGACUGGAAUUCUCGGGUGCCAA	0.812
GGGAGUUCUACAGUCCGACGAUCCUAAUUUUUUGUAUUUUUAGUAGAGACGGUUUCAUCGUGUUAGCCAGGAUGGUCUCGAUCUCCUGACCUUGUGAUCCACCCGCCUCAGCCUCCCAAAGUGCUGAGAUUACUGGAAUUCUCGGGUGCCAA	0.394
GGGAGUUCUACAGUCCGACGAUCGGAUAGGGACAGCCCAGGUCACAGCCAGGGUCAACAGAGGUACCACAGAGCUACCUUUUGGGAUGAUUGCUUGAUUGUUUUUUUAUCUGAGAAUUCUAGAUAGAUAGCUAUGGAAUUCUCGGGUGCCAA	0.662
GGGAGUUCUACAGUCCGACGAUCCGAAGGGCGUUCCAAUGCAGGAAAAUGAACCUCUUUCCCAACCCAGGACUGGGGCUUUCUCCCCAGAGGUGAGCCUCUGUGAGCAUCGAGAGGAUUUGCACAUGCCAAGCUGGAAUUCUCGGGUGCCAA	6.42
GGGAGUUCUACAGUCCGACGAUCGUAUUUCUUAUGACUUUGCAUAAGAACUGUUCAUCUUUGGAUCUUGAGCACCUUACAGAUAAAACUUUUUAUGGCAUCUCUUUCAUGGACAGUGAUAUUGAUCUUUUCACUGGAAUUCUCGGGUGCCAA	0.318
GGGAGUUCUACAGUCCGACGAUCAGGAGAGGUUCUGUAGAAUCCAAGCCCACAUUUCCAAAGUCACCCCCAACGCGUCCUCUCACACCGUCCACUGUGCGUUUGUAUGUGUCUGGGAUCCAGGGCAAUGUGAAUGGAAUUCUCGGGUGCCAA	0.379
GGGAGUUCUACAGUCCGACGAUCUGUGUGAAAAAGAUGCCAAUUAUUGUUACACAUUAAGUAAUCAAUAAAGAAAACUUCCAUAGCUAUUCAUUGAGUCAAAUUGUAAUGUGCUUUACCAAACAAGGUAUUUGUGGAAUUCUCGGGUGCCAA	0.324
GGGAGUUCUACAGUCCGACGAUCUUGUGUGAAAAUGUGACAAACACACUUAUCUGUCUCUUCUACAAUUGUGGUUUAUUGAAUGUGAUUUUUCUGCACUAAUAUAAAUUAGACUAAGUGUUUUCAAAUAAAUCUGGAAUUCUCGGGUGCCAA	1.05
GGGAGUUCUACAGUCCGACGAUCGGGCCACCAGCCUCCCCUUCUUGUGGUGAGACUGAAUUUUGGGCUCAGACACCAGCAACAGCCUCUUGGGAUGCCCUGAGUUGCUUCCCAUUUCCUCUUUCUAGCCGUCCUGGAAUUCUCGGGUGCCAA	0.345

Set 6
Target: Prothrombin, mature alpha-thrombin (F2, Homo sapiens, UniProt P00734)
Technique: aptamer microarray, sandwich
Form: DNA with 2'F-ANA
Medium: in vitro
Concentration: 200 nM
Notes: whole 15-mer aptamer, many near background
Added: Cy3 exosite-II aptamer, 400 nM
Direction: higher = stronger binding
Sequence: GGTTGGTGTGGTTGG
Modification	mean fluorescence intensity [a.u.]
2'F-ANA at 2 3 8 9 10 11 13 15	303
2'F-ANA at 4 6 8 10 11 12 13 14 15	82.7
2'F-ANA at 3 4 5 6 9 11 13 14	52.2
2'F-ANA at 2 4 6 8 9 12 13 14 15	87.6
2'F-ANA at 1 5 7 8 9 11 12 13 15	73.7
2'F-ANA at 1 2 4 6 7 8 10 11 13	55
2'F-ANA at 1 2 4 7 10	53.9
2'F-ANA at 1 4 8 15	229
2'F-ANA at 1 2 3 4 5 8 9 11 12 14 15	49.8
2'F-ANA at 2 3 4 5 9 11 12 13 14 15	53.7
2'F-ANA at 1 3 4 6 9 10 11 13	61.8
2'F-ANA at 1 2 4 6 7 8 9 10 11 12 13 14 15	51.4
2'F-ANA at 1 2 3 4 5 6 8	65.6
2'F-ANA at 1 2 4 5 6 9 12 14	48
2'F-ANA at 1 2 4 6 7 8 10 12 14	49.4
2'F-ANA at 4 5 9 10 11 14 15	78.8
2'F-ANA at 2 5 6 7 8 10 12	57
2'F-ANA at 1 3 5 6 7 10 13 14 15	45.5
2'F-ANA at 3 4 5 7 8 10 11 12 15	64.3
2'F-ANA at 1 6 7 8 9 13	140
2'F-ANA at 6 10	185

Set 7
Target: ABI1, truncated, D143A, DHFR fusion (Arabidopsis thaliana)
Technique: DHFR PCA, deep sequencing
Medium: yeast
Notes: methotrexate growth selection, single substitutions
Added: (+)-ABA 0.032 µM
Baseline: wild-type fitted maximum
Direction: higher = stronger binding
Starting sequence: PYL1, truncated, DHFR fusion (Arabidopsis thaliana); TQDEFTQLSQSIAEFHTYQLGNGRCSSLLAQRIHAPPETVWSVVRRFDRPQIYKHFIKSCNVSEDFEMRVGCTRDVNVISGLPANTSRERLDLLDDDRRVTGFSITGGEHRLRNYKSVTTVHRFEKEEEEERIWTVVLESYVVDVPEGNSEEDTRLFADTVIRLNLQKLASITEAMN; partner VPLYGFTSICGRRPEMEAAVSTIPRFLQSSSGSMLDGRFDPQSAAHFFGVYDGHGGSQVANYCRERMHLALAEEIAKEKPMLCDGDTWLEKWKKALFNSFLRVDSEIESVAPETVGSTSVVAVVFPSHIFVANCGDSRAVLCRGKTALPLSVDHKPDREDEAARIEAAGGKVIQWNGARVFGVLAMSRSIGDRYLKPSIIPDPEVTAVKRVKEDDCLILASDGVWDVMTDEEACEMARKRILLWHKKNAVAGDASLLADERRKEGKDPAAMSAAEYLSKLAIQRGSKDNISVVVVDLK
Change	relative binding score [%]
E139Y	-0.757
T120R	-1.3
P36S	19.2
S63P	44.2
M68N	2.31
T135G	-2.76
T86E	5.87
V118C	9.76
H55R	23.4
Y53L	-1.66
Q2W	48.4
L20F	5.93
P36F	3.95
A84P	27.6
S11K	4.15
E129L	20.5
D159G	1.32
L156D	-4.03
E130Q	23.3
L91M	1.19

Repeated from above (set 4):
Change	normalised enrichment score
C4L	1.32
D12G	1.53
P10C	1.58
N6G	0.421
L7N	-0.155
C4R	1.78
G9L	0.811
R5Y	0.264
L7M	0.628
H13Q	1.46
G9K	1.98
L7P	0.13
G9R	-0.126
P10M	0.53
C4P	0.144
F8V	-0.324
G9P	0.8
C4Q	0.149
C4T	0.459
